# Measured values of several laboratories.
# Numbered parts are unrelated; each lists some results of a single study.

# Sample 1
# Sequence: GAPLKKLFTSTGL
# Organism: Saccharomyces cerevisiae
# Read-out: binding
# Method: competitive growth deep sequencing
# Form: peptide
# Tested at: concentration not given
# Direction: direction not given
system,conditions,growth enrichment score
cyclin D3-Cln2 fusion strain,peptide library 1,0.134
cyclin E1-Cln2 fusion strain,combined peptide libraries,1.07
cyclin E1-Cln2 fusion strain,peptide library 1,0.482

# Sample 2
# Target: Sal-like protein 4, full length isoform A (SALL4, Homo sapiens, UniProt Q9UJQ4, residues 1-1053)
# UniProt Q9UJQ4, sequence (whole entry, looked up): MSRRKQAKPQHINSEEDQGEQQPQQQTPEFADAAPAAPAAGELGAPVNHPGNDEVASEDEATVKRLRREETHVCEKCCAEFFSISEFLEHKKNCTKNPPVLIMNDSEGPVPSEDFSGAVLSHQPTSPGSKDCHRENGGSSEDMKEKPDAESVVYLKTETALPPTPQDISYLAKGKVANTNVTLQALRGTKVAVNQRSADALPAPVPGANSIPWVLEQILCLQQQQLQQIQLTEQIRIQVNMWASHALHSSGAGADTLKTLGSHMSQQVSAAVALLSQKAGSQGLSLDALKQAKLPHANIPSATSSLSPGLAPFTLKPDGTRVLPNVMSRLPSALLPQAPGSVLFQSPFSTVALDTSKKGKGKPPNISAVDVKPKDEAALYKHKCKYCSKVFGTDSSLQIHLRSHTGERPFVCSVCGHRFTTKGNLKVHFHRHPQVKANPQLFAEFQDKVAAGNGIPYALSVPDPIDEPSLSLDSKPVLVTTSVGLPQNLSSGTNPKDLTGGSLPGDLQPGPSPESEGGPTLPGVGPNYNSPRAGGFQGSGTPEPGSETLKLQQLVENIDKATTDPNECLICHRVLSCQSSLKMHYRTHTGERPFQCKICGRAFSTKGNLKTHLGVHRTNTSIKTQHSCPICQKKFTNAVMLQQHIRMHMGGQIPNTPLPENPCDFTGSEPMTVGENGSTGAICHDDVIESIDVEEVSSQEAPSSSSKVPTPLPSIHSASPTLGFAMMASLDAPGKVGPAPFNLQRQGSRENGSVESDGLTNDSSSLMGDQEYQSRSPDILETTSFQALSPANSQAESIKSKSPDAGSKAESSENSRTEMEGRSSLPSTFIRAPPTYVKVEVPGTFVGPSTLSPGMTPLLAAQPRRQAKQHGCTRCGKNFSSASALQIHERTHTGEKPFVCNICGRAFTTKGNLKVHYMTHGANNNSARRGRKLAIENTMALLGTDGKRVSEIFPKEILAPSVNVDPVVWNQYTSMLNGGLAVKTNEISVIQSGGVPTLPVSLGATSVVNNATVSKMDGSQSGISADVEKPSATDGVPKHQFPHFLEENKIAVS
# Method: universal PBM
# Form: double-stranded DNA, one strand shown
# Sample: in vitro
# Tested at: 600 nM
# Notes: 8-mer, flanks averaged, mean of replicates
# Direction: higher = stronger binding
Sequence,E-score
AGGAAGCG,-0.128
CCCGTGAC,-0.211
CTTGAGGA,-0.0713
CTCATACC,0.133
AAAGCGGC,-0.292
CCCCTCCC,-0.299
GACACCGA,-0.155
CGTGTAAA,0.0186
GCCACACA,-0.203
AAGTCGTA,0.159
CCTTCCCG,-0.193
CTCACACC,-0.221
CCACACGA,-0.185
ATAGGATC,0.152
GACACGGA,-0.152
ATGTTTGC,0.0949

# Sample 3
# Target: RNA binding protein fox-1 homolog 2, RRM domain, GST-SBP tag (RBFOX2, Homo sapiens, UniProt O43251-10, residues 100-194)
# Method: RNA Bind-n-Seq
# Form: RNA
# Sample: in vitro
# Tested at: 365 nM
# Notes: natural RNA segment, single round, ends assumed
# Baseline: no-protein control
# Direction: higher = stronger binding
# Constant ends, left off below: GGGAGUUCUACAGUCCGACGAUC … UGGAAUUCUCGGGUGCCAA
Sequence,RBNS enrichment (R)
UUCCCUGCUCCAUCCCUGUGGCACCAUUAUGGUUUUUUGGCUGUUUGUAUAUACGGUUACGUAUUAACUCUGGAAUCCUAUGGGCUCAUCUUGCUCACCCAAUGUGGGAG,0.379
UCACCUCUUCCUCCAAGCCCCGCCCCCUCUGCCCCACGUGCCGGCCCUCCUGGUGCUCUAUCCACUGCAGGGCCAGCCACUCGCCAGGAGGCCACGGGCCACGGGAAGAA,0.374
UAGCUUUGUUUGGAAGCCUUUCUGGUGGUGGUUUUUGUUGUUGUUGUUGUUUUGUUGUUUUACUAUAUGUAAUACAAGCCUACAGUAUUUGCACUAAAGAAAGCUUGUUA,1.77
UUUGCCAAGGCCUUUAUUUUAAAGUGUUCUUGGAAAAUCGUAUUUAAAUUUGCAAUUAUUCUAAUUUGAUAUAGAGAGAAACUGACCUAUUUAACAAAUGGACUCUCUUA,0.422
AUACAAAUGCAAAAUGCCUUAUACUGAAGCAGUUUUACAUGAAGUUUUAAGAUUCUGUAAUAUAGUUCCACUGGGAAUUUUCCAUGCAACUUCGGAAGAUGCAGUUGUAC,0.381
AUCCUUCUUGGCUUCCUGGCGCCCCCUAUCGGGGGUGAGCGAAGCCCCCACUACUAAAUGGCCUCUCUCCACUACCCCGACUAUCCCUGCACAUAAACUCCGUUUUUUUU,0.506
GCCGGCAUGGUAAAAGGAAGCUGUCUCCCUUCUGACAUUUCCUAGGAAGCUAGGAAAAGGAAAGUGAAGGAAUGGUCUAAAGAAAUGACCAUUCACACUGAUUUUGUCUG,0.374
AUACUUAGUGCUGCUGGGUAAUUUGUUGGUAUAUUAUCUGGUUAGUGGUUAAUGCUUCCUUUAAAAAUAAUUGAGUCAUCCAUUCACUCUUUUUCAGUUUUAUCUGUCAA,0.438

# Sample 4
# Target: PABPC1L2, full length, GST fusion (mouse, UniProt A0ABA7IW68)
# Method: RNAcompete
# Form: RNA
# Sample: in vitro
# Tested at: 20 nM
# Notes: 7-mer, probes averaged, single round
# Baseline: mean of 7-mers
# Direction: higher = stronger binding
# Construct (chain): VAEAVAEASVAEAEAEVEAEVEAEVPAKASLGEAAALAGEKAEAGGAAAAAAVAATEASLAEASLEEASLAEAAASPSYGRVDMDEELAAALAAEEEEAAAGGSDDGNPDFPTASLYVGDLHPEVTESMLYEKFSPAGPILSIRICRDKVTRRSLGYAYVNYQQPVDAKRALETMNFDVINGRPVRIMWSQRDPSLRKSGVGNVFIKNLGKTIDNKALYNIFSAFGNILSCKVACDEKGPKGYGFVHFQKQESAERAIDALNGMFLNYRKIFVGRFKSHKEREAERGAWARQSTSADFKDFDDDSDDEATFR
Sequence,7-mer Z-score
ACGCCCA,-0.277
UUUCAUC,-0.383
UGGGGUG,0.0352
GUAGUCG,-0.28
GGGGAGU,0.135
UGUGCCA,-0.327
UGAACAC,-0.115
GUAGUGG,-0.106
GGCGGCU,0.0551
UCGAACU,-0.336
UCAAAAC,0.914
GUAAUAA,0.0352
GUAGUGA,-0.108
GCGUCAG,-0.224
UACUGAU,-0.226
GGAAUCA,0.017
CGGCGGC,-0.126
CCCAUGC,-0.438
CAAUAAC,0.00979
GACCGGC,-0.195
CGUGUGA,-0.277
GAACCAU,-0.124
UUUAUGA,0.196
CGAGAUG,0.0551
AUCGUAU,-0.217

# Sample 5
# Target: Ras GTPase-activating protein-binding protein 1, full length (G3BP1, Homo sapiens, UniProt Q13283)
# UniProt Q13283, sequence (whole entry, looked up): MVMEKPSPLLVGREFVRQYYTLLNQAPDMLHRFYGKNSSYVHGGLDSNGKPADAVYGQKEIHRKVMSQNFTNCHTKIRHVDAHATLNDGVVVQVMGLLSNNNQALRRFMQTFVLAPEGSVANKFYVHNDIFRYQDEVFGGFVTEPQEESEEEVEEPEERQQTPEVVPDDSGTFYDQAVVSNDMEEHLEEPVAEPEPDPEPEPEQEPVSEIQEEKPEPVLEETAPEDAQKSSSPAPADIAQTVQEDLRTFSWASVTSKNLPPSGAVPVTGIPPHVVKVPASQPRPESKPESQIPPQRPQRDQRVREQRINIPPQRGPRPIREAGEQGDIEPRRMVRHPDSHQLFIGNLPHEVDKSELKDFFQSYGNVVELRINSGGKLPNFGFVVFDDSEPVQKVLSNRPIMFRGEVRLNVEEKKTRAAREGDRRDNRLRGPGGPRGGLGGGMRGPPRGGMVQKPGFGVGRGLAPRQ
# Method: RNA Bind-n-Seq
# Form: RNA
# Sample: in vitro
# Tested at: 200 nM
# Notes: whole 134-nt RNA, ends assumed
# Added: 150 mM KCl
# Baseline: input library
# Direction: higher = stronger binding
# Constant ends, left off below: GGGAGUUCUACAGUCCGACGAUC … UGGAAUUCUCGGGUGUCAAGG
Sequence,log2 enrichment
GCAGGAAGUAAAAACAAAUGGAAAUGCUUCGGAUUGUGGCAGGGGUGGGGGUUGCUAAGGAAAGGGUGGGAUGGGAGUGGGUAAAGAGUU,1.12
AGUCCUGUGCUACACAUCGUAUGUACCGAAUCGGAAAGGAAAAAAAGGUUUUUUUGGAAAGUAUUAUGUUACGCCGUUCGGAUCUGCACU,-1.64
CACAGACAACACGCACCCACACAGACACAGAGGGAAGGGGCUGGGAUGGGGACAGGGUGCACAGCAGGGCGGGGUAGGACCCCAGCCCCU,1.88
UCCUCAAGUCCUGUGCUACACAUCGUAUGUACCGAAUCGGGCGGGCGGCGGGAAAGUAUUAUGUUACGCCGUUCGGAUCUGCACUUCCAG,0.139
ACCAUGCAGGUUGGCAUCUUUGGGAAGUGGGGCAAGGGGGGGAUAGGGAGGGGGGUAACACUUUGGGAACAGGUGGUCCCAGGUCGUUUC,1.57
UGGUCAUGGGAUGGAGAACCAGUUCUUCCCUUAUAUCUUCACCAUAUGACUAUUGACCCUGUCUUAGGCUGCUCCCAGGCCGUUCCAUUG,0.972
UCUUGUAUGACUUAACCCCUGUUUCUAAUACAGGGGCCGCUCUCCUCAGCCUCCUGCUGAAGAGGAUGAAGAUGACUUUGAUGAUACCCU,0.399
UGUACUCGGAAGUUUCACUUACCAUCGACCACUCUCUGAUUCCGGAGGAGAGGCUCUCGCCCACCCCAUCCAUGCAGGAUGGGCUCGACC,0.0211
CAAGUCCUGUGCUACACAUCGUAUGUACCGAAUCGGGUGGGAAAGGGAAAAAGGGAAAGUAUUAUGUUACGCCGUUCGGAUCUGCACUUC,0.462
